Assay results from different studies.
± gives the spread as reported.

Cc1ccc2oc(-c3c4c(N)n[nH]c(=O)c4nn3-c3ccc(NC(=O)/C=C/CN(C)C)cc3)c(C)c2c1 — FGFR1 phosphorylation (KG-1; Western blot; concentration not given): inhibited
Cc1nc(C)c(C=[N+]([O-])C(C)(C)C)nc1C — increase in protein level (primary rat midbrain neurons; Western blot, measured: SIRT1; 300 µM, with: 20 µM MPP+): 101%
COc1ccc([C@@H]2CC(=O)c3c(O)cc(O[C@@H]4O[C@H](CO[C@@H]5O[C@@H](C)[C@H](O)[C@@H](O)[C@H]5O)[C@@H](O)[C@H](O)[C@H]4O)cc3O2)cc1O — cell count (A549; trypan blue exclusion; 50 µg/mL, 72 h): 30400 ± 706
COc1cc(CNC(=O)C[C@H](C)CCC=C(C)C)ccc1OCc1cn(-c2ccc(Cl)cc2Cl)nn1 — growth percent (CAKI-1; SRB; 10 µM, 48 h): 31.8%
COc1cc(CN2CCN(c3ccc(F)cc3)CC2)c2cc3[n+](cc2c1O)CCc1cc2c(cc1-3)OCO2 — therapeutic index (Ca-Ski and MDCK; SRB; 48 h; reference: CC50 MDCK over IC50 Ca-Ski): 24.1
COc1cc(CNC(=O)C[C@H](C)CCC=C(C)C)ccc1OCc1cn(-c2ccc([N+](=O)[O-])cc2)nn1 — growth percent (HOP-92; SRB; 10 µM, 48 h): 86.5%
C(=C/c1ccccc1)/c1ccccc1 — EC50 (cord blood CD34+ cells; caspase-3 activity, flow cytometry; 24 h): > 50 µM
CCC12CCc3c(c4ccccc4n3C)CCN(CC3OC31)C2 (stereo not shown) — iNOS and COX-2 protein level (BV-2; western blot; 6, 12 and 25 µM, with: LPS): decreased
CCC(=C(c1ccc(Cl)cc1)c1ccc(OCCN(CC)CC)cc1)c1ccc(OC)cc1 — alkaline phosphatase activity (Ishikawa; 1 µM, 72 h, unit not given; reference: DMSO): 1.89 ± 0.45
O=C(/C=C/c1ccc(Cl)cc1Cl)NO — LysoTracker signal (SK-N-BE(2)-C; flow cytometry; 5.0 µM, unit not given; reference: control): 1.5 ± 0.27
O=Cc1c(O)ccc2ccccc12 — log2 fold change (HUVEC; RNA sequencing, measured: HIST2H2BE; 75 µM, 24 h; reference: DMSO): 3.27
CC(C)c1cccc(C(C)C)c1N1CCN(c2c(C(C)C)cccc2C(C)C)C1=[Se].[Cl][Au] — resistance factor (A2780 ADR; MTT; reference: A2780 ADR over A2780): 0.5
COc1cc(CNC(=O)C[C@H](C)CCC=C(C)C)ccc1OCc1cn(-c2cccc(C(F)(F)F)c2)nn1 — growth percent (TK-10; SRB; 10 µM, 48 h): 102%
COc1ccc(NC(=O)COc2ccc(/C=C/C(C)=N/O)cc2OC)cc1 — IL-1β expressing cells (SH-SY5Y; flow cytometry; 2.5 µM, with: amyloid beta 10 µM): 48.2%
COc1cc(CNC(=O)C[C@H](C)CCC=C(C)C)ccc1OCc1cn(-c2ccccc2F)nn1 — growth percent (HOP-92; SRB; 10 µM, 48 h): 4.63%
CC(CCC(=O)NCc1ccc(C(=O)NO)cc1)C1CCC2C3C(O)CC4CC(O)CCC4(C)C3CCC12C (stereo not shown) — acetylated α-tubulin level (polycystic liver disease cholangiocytes (human); immunoblot; concentration not given): increased
COc1cc(CNC(=O)C[C@H](C)CCC=C(C)C)ccc1OCc1cn(-c2cccc([N+](=O)[O-])c2)nn1 — growth percent (HOP-92; SRB; 10 µM, 48 h): 76.2%
N=C(N/N=C/c1cccs1)N/N=C/c1cccs1 — selectivity ratio (PANC-1; crystal violet; 72 h; reference: IC50 hTERT-HPNE over IC50 PANC-1): 2.4
CC(=O)OC[C@H]1O[C@@H](Sc2sc(C(=O)c3ccc(Br)cc3)c(N)c2-c2nc3ccccc3s2)[C@H](OC(C)=O)[C@@H](OC(C)=O)[C@H]1OC(C)=O — growth (NCI-H322M; SRB; 10 µM, 48 h; reference: untreated): 91.8%
